Experimental data collected from several papers.
Numbered parts are unrelated; each lists some results of a single study.

Set 1 — technique: protein binding microarray; form: double-stranded DNA, one strand shown; matrix: in vitro; concentration: not given; relative to: not given; direction: higher = stronger binding
Target: Histone acetyltransferase KAT6A, winged helix 2, GST fusion (KAT6A, Homo sapiens, UniProt Q92794, residues 85-181)
Setting: 8-mer, flanks averaged, mean of 2 arrays, mostly near background
Residues (chain): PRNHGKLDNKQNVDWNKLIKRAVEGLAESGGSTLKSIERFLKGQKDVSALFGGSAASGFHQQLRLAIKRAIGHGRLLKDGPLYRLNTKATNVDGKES
| Sequence | E-score |
| --- | --- |
| CGACGCCA | 0.0249 |
| ATCTGGAA | -0.0571 |
| GATCTGCA | 0.00309 |
| AGTCAACT | -0.168 |

Set 2 — technique: protein-binding microarray; form: double-stranded DNA, one strand shown; matrix: in vitro; concentration: 250 nM; setting: 60-bp whole probe; together with: salmon DNA 0.4 mg/ml; relative to: random background probes; direction: higher = stronger binding
Target: Interferon regulatory factor 5, full length, phosphomimetic (IRF5, Homo sapiens, UniProt Q13568-2, residues 1-514, K96S/S451D/S453D/S456D/S462D)
| Sequence | log fluorescence [z-score] |
| --- | --- |
| GCCTAGCACAATGATTGGTTGAACATGAAGTGCTAGGTCTTGATTCGCTTGACGCTGCTG | 0.206 |
| GCCTAGCACTAAGGTCTCCTACTGCTTTAGTGCTAGGTCTTGATTCGCTTGACGCTGCTG | -0.292 |
| GCCTAGCACGACGATATCGGGTATCGTGACGTGCTAGTCTTGATTCGCTTGACGCTGCTG | 1.98 |
| GCCTAGCACCAGGGTTTCACTTTAAATTAGTGCTAGGTCTTGATTCGCTTGACGCTGCTG | 4.09 |

Set 3 — technique: RNA Bind-n-Seq; form: RNA; matrix: in vitro; concentration: 1 µM; setting: whole 134-nt RNA, ends assumed; together with: 150 mM KCl; relative to: input library; direction: higher = stronger binding
Target: Ras GTPase-activating protein-binding protein 1, RRM domain (G3BP1, Homo sapiens, UniProt Q13283)
Chain of UniProt Q13283 (whole entry, looked up): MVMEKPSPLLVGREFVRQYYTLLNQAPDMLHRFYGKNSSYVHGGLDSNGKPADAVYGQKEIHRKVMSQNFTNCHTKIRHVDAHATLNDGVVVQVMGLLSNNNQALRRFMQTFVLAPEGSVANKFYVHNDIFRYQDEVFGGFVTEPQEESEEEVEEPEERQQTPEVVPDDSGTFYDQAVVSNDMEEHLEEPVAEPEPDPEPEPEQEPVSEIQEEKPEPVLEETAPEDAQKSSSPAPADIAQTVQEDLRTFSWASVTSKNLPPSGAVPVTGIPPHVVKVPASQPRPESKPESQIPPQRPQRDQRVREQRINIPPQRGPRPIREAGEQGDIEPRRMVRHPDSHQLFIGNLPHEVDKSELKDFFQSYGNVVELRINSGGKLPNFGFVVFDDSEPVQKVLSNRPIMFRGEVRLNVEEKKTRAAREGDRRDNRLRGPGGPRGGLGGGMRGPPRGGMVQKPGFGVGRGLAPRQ
| Sequence | log2 enrichment |
| --- | --- |
| GGGAGUUCUACAGUCCGACGAUCGUCCUGUGCUACACAUCGUAUGUACCGAAUCGGGGAAAAAGGAAAAAGGGGAAAAAGGAAAGUAUUAUGUUACGCCGUUCGGAUCUGCACUGGAAUUCUCGGGUGUCAAGG | -0.0922 |
| GGGAGUUCUACAGUCCGACGAUCCCUGUGCUACACAUCGUAUGUACCGAAUCGGGUUUUUUUGGGUUUUUGGGAAAAAAAGGGAAAGUAUUAUGUUACGCCGUUCGGAUCUGCUGGAAUUCUCGGGUGUCAAGG | -0.197 |
| GGGAGUUCUACAGUCCGACGAUCCAAGUCCUGUGCUACACAUCGUAUGUACCGAAUCGGUUUUGGUUUUGGUUUUGGGGAAAGUAUUAUGUUACGCCGUUCGGAUCUGCACUUUGGAAUUCUCGGGUGUCAAGG | -0.281 |
| GGGAGUUCUACAGUCCGACGAUCUCCUGUGCUACACAUCGUAUGUACCGAAUCGGGUUUUUGGGAAAAAGGGAAAAAAAGGGAAAGUAUUAUGUUACGCCGUUCGGAUCUGCAUGGAAUUCUCGGGUGUCAAGG | 0.0243 |

Further values, each from its own experiment
| Molecule | target | test | test system | conditions | how to read | endpoint | value |
| --- | --- | --- | --- | --- | --- | --- | --- |
| PhoQ, residues 284 288 289 292 302 303 SLSLLA | PhoP, residues 12 14 15 18 19 SPWRL (Escherichia coli, UniProt P23836) | Sort-seq, measured: YFP reporter | E. coli | PhoQ-PhoP variant library, together with: 10 µM Mg2+ | relative to: high Mg2+ state, higher = stronger signaling | fold induction | 10.9 |

Repeated from above (set 1):
| Sequence | E-score |
| --- | --- |
| CGACGCCA | 0.0249 |
